Published values of several laboratories.
Each line is one published result; not all experiments were run side by side. Numbers after ± are the reported error.
relA residues 53-446: relA, residues 53-446 (Mycobacterium tuberculosis, UniProt P9WHG9)
UniProt P9WHG9, sequence (53-446, looked up): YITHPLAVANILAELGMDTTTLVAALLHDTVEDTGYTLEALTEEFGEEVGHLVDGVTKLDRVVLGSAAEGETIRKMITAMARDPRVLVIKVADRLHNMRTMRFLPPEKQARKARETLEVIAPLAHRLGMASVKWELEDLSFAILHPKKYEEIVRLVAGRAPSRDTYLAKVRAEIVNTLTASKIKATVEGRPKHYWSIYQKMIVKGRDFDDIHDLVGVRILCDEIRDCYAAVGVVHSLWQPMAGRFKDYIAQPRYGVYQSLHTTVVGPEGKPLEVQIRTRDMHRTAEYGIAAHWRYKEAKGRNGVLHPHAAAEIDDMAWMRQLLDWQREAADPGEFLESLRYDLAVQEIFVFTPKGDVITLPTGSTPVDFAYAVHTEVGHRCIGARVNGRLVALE
tmk: Thymidylate kinase (tmk, Mycobacterium tuberculosis, UniProt P9WKE1)
UniProt P9WKE1, sequence (whole entry, looked up): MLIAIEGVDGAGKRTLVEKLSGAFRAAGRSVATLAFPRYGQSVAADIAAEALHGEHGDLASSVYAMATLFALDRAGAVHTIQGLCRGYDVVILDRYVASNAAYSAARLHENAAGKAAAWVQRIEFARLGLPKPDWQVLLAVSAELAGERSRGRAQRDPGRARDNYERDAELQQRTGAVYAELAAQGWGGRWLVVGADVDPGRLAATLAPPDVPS
UniProt Q12809, sequence (whole entry, looked up): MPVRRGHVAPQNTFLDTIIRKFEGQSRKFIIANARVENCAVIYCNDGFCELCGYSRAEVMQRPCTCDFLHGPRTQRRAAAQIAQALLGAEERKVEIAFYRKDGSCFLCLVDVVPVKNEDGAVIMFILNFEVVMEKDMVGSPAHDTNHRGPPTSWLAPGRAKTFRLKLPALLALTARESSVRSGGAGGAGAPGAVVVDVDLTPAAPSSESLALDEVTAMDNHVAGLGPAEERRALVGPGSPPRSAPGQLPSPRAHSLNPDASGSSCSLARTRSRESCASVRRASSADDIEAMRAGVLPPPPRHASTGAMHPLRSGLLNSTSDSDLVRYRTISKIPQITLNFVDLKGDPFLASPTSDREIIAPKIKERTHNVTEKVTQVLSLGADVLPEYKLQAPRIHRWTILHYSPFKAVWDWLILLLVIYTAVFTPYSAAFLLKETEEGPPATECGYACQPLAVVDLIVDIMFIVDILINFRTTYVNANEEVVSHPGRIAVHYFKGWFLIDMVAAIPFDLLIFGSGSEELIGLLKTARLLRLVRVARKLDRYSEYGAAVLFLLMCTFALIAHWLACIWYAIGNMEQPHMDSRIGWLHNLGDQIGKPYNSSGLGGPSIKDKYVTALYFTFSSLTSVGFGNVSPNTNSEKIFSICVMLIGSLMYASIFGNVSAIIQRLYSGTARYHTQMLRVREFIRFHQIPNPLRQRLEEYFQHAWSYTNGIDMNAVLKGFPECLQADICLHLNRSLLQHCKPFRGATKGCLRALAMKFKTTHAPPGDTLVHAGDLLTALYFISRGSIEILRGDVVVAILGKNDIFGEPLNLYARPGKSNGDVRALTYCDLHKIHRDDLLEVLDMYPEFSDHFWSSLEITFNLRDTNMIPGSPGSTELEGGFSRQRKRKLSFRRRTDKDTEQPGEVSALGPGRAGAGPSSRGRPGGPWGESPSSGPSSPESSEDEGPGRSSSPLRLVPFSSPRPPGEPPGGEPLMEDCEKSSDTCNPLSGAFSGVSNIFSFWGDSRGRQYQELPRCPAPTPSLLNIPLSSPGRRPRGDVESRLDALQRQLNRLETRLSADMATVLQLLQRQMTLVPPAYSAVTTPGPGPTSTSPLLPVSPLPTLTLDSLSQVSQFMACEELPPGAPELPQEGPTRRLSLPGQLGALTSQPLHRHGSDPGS
UniProt P07711, sequence (whole entry, looked up): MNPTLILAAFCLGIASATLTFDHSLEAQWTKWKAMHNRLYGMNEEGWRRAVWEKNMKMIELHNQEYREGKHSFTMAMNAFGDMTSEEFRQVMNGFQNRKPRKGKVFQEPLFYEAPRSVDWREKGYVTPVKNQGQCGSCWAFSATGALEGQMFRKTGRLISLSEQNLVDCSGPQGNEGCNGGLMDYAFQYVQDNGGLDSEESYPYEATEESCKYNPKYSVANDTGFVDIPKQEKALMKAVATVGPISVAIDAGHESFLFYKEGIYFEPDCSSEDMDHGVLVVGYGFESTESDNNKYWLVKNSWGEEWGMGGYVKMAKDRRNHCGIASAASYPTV
UniProt P9WPC9, sequence (whole entry, looked up): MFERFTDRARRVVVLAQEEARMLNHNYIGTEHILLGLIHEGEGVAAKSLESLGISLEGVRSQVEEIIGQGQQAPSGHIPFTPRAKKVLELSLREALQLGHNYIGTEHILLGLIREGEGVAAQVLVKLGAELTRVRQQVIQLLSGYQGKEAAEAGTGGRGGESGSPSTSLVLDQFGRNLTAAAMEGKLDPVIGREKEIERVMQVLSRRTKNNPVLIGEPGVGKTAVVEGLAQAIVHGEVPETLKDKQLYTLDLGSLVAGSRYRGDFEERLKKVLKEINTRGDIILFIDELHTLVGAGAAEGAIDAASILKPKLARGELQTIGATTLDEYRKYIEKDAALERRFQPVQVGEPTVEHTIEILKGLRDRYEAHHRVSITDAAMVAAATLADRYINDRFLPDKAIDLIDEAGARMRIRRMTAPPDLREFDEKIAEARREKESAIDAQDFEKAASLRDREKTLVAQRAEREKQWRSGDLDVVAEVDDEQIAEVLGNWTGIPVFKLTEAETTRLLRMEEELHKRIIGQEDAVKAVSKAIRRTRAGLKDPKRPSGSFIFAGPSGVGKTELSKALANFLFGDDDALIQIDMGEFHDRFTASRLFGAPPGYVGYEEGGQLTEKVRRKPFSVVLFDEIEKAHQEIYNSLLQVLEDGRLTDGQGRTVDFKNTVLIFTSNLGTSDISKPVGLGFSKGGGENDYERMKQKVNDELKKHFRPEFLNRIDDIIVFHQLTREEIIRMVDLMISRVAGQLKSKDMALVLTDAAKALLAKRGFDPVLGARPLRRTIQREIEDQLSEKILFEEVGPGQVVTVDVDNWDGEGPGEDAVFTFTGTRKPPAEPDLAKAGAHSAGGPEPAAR

SMILES | target or system | assay | system | setting | how to read | measurement | result
CC(C)(C)c1ccc(-c2cncc(-c3nc4ccc5cc(C(=O)O)cc(O)c5c4[nH]3)c2)cc1 | relA residues 53-446 | enzyme activity, inhibitor, fluorescence polarization | – | – | – | IC50 | 7.94 µM
COc1cc2c(cc1-n1ccnc1)C[C@H]1[C@H]3CCCC[C@@]23CCN1C | KCNH2 (Homo sapiens, UniProt Q12809) | radioligand binding, inhibitor | – | – | – | IC50 | 23.2 µM
Cc1cc(/C=C/c2ccc(C(=O)O)cc2)ccc1OCCc1scnc1C | relA residues 53-446 | enzyme activity, inhibitor, fluorescence polarization | – | – | – | IC50 | 15.8 µM
O=C1NC2(CC2)COc2ncc(F)cc2[C@H]2COCCN2c2ccn3ncc1c3n2 | – | – | Sprague-Dawley rat, female, uterus | oral, 10 mg/kg/day, 4 weeks, end of treatment | – | organ-to-body weight ratio | 0.154 ± 0.052%
CCCCCc1cc(O)c2c(c1)OC(C)(C)C1=C2[C@@H](O)[C@@](C)(O)CC1 | rat intestinal maltase | inhibitor | rat intestinal acetone powder | 10 min, 37 °C, together with: maltose 10 mM | – | IC50 | 310 ± 40 µM
Cc1cn(C2CC(O)C(COP(=O)(O)O)O2)c(=O)[nH]c1=O (stereo not drawn) | tmk | enzyme activity, inhibitor, absorbance | – | – | – | IC50 | 0.0712 µM
CC(C)CC(C(=O)N1CC2(CC1C#N)C(=O)Nc1ccccc12)N(C)C(=O)c1cc2c(F)cc(F)c(F)c2[nH]1 (stereo not drawn) | Procathepsin L (CTSL, Homo sapiens, UniProt P07711) | enzyme activity, inhibitor | – | – | – | IC50 | > 100 µM
CC1=CC(C=C(Cl)c2ccc(C(=O)O)cc2)C2(C(=O)O)C=CC(CCOC(=O)c3ccc(Oc4ccccc4)cc3)CC2C1 (stereo not drawn) | clpC1 (Mycobacterium tuberculosis, UniProt P9WPC9) | enzyme activity, inhibitor | – | – | – | IC50 | 5.9 µM
COc1ccccc1-c1n[nH]c2nc(NC3CCN(C(=O)Cc4ccc(F)cc4F)CC3)ncc12 | – | bead binding, competition bead pull-down, item: LINJ.28.3060 | Leishmania donovani axenic amastigote extract | 10 µM | reference: vehicle | relative abundance | 0.95
CCCCCc1cc(O)c2c(c1)OC(C)(C)c1cc(O)c(C)cc1-2 | rat intestinal maltase | inhibitor | rat intestinal acetone powder | 10 min, 37 °C, together with: maltose 10 mM | – | IC50 | 100 ± 20 µM
CCOC(=O)C1=C(C)NC(=S)NC1c1ccc([N+](=O)[O-])o1 (racemic) | tmk | enzyme activity, inhibitor, absorbance | – | – | – | IC50 | 0.579 µM
CCCCCc1cc(OC)c2c(c1)OC(C)(C)c1cc(O)c(C)cc1-2 | rat intestinal maltase | inhibitor | rat intestinal acetone powder | 10 min, 37 °C, together with: maltose 10 mM | – | IC50 | 360 ± 10 µM
COCCOC(=O)N1CCC2(CCCN(Cc3ccc(Cl)c(Cl)c3)C2)C1 (stereo not drawn) | relA residues 53-446 | enzyme activity, inhibitor, fluorescence polarization | – | – | – | IC50 | 12.6 µM
CCCc1cc(O)c2c(c1)OC(C)(C)C1=C2[C@@H](O)[C@@](C)(O)CC1 | rat intestinal maltase | inhibitor | rat intestinal acetone powder | 10 min, 37 °C, together with: maltose 10 mM | – | IC50 | 510 ± 70 µM
C=CCNC(=O)N1Cc2ccc(NC(=O)NC3CC3c3ccccc3)cc2C1 (stereo not drawn) | relA residues 53-446 | enzyme activity, inhibitor, fluorescence polarization | – | – | – | IC50 | 12.6 µM

For quick reference, copied from above:
SMILES | target or system | assay | system | setting | how to read | measurement | result
O=C1NC2(CC2)COc2ncc(F)cc2[C@H]2COCCN2c2ccn3ncc1c3n2 | – | – | Sprague-Dawley rat, female, uterus | oral, 10 mg/kg/day, 4 weeks, end of treatment | – | organ-to-body weight ratio | 0.154 ± 0.052%
